Assay results of several laboratories.
Protocols differ between the studies behind these lines. ± marks the error that the study gave.
Organism: Klebsiella pneumoniae

`Cc1ccc2ccc3ccc(C)nc3c2n1.Cc1ccc2ccc3ccc(C)nc3c2n1.O.[Cl-].[Cl-].[Cl-].[Yb+3]` gave an inoculation time of 24 h (bacterial growth).
`c1ccc(CN2CCOCCOCCN(CCCCCCCCCCCCCCN3CCOCCOCCN(CCCCCCCCCCCCCCN4CCOCCOCCN(Cc5ccccc5)CCOCCOCC4)CCOCCOCC3)CCOCCOCC2)cc1` gave a fold enhancement of 16 fold (tetracycline MIC, checkerboard; ATCC BAA-2146; half MIC, added: tetracycline; baseline: MIC alone over combination).
For `O.O.O.O.O=C([O-])Cc1ccccc1Nc1c(Cl)cccc1Cl.O=C([O-])Cc1ccccc1Nc1c(Cl)cccc1Cl.[Na+].[Na+].c1cnc2c(c1)ccc1cccnc12.c1cnc2c(c1)ccc1cccnc12`, the inhibition was 78.03 ± 0.062% (biofilm formation, crystal violet; ATCC 13882; 250 µM).
Under “inhibition zone diameter”, `CCOC(=O)C1=C(C)NC2=C(C(=O)CC(C)(C)C2)C1c1ccc(OCC(=O)NN=Cc2cccc([N+](=O)[O-])c2)cc1OCC(=O)NN=Cc1cccc([N+](=O)[O-])c1` (stereo not shown) is recorded as 4.6 ± 0.2 mm (EMCS; concentration not given, 24 h, 37 °C).
For `N[C@@H](CN[C@@H](CN[C@@H](CC(=O)O)C(=O)O)C(=O)O)C(=O)O`, the rescue concentration was 8 µg/mL (ATCC 33495::pGDP2, NDM-1, Mueller-Hinton broth; added: meropenem 2 µg/mL).
`CC(=NNC(=N)N)c1nnn(-c2ccc(C#CC3(O)CCCCC3)cc2)c1C` gave a biofilm inhibition of 72.11 ± 0.51% (crystal violet; ATCC 13883; MIC).
`Oc1ccc(F)cc1-c1nc2c(Cl)cc(Cl)cc2[nH]1`: “MIC of colistin” 0.125 µg/mL (colistin potentiator; B9; 5 µM).
For `CCOC(=O)C1=C(C)NC2=C(C(=O)CC(C)(C)C2)C1c1ccc(OCC(=O)NN=Cc2cc(Br)c(O)c(Br)c2)cc1OCC(=O)NN=Cc1cc(Br)c(O)c(Br)c1` (stereo not shown), “inhibition zone diameter” read 3.2 ± 0.3 mm (EMCS; concentration not given, 24 h, 37 °C).
`Oc1ccc(C(F)(F)F)cc1-c1nc2c(Cl)cc(Cl)cc2[nH]1`: “MIC of colistin” 0.125 µg/mL (colistin potentiator; B9; 5 µM).
For `COc1ccc(-c2ccn(CC[C@](C)(C(=O)NO)S(C)(=O)=O)c(=O)c2)c(F)c1`, “free AUC/MIC for 1-log kill” read 13.5 (KP-1487, neutropenic mice, thigh infection; dose not given, 24 h).
The survival of `NC(CNC(CNC(CC(=O)O)C(=O)O)C(=O)O)C(=O)O` (stereo not shown) is reported as > 95% (N11-2218 NDM-1-positive, mice; subcutaneous, 30 mg/kg single dose, 5 days, added: meropenem 10 mg/kg).
For `Oc1ccc(Cl)cc1-c1nc2c(Cl)cc(Cl)cc2[nH]1`, “MIC of colistin” read 0.25 µg/mL (colistin potentiator; B9; 5 µM).
For `c1ccc(CN2CCOCCOCCN(CCCCCCCCCCN3CCOCCOCCN(CCCCCCCCCCN4CCOCCOCCN(Cc5ccccc5)CCOCCOCC4)CCOCCOCC3)CCOCCOCC2)cc1`, the fold enhancement was 8 fold (tetracycline MIC, checkerboard; ATCC BAA-2146; half MIC, added: tetracycline; baseline: MIC alone over combination).

Repeated from above:
For `c1ccc(CN2CCOCCOCCN(CCCCCCCCCCN3CCOCCOCCN(CCCCCCCCCCN4CCOCCOCCN(Cc5ccccc5)CCOCCOCC4)CCOCCOCC3)CCOCCOCC2)cc1`, the fold enhancement was 8 fold (tetracycline MIC, checkerboard; ATCC BAA-2146; half MIC, added: tetracycline; baseline: MIC alone over combination).
Under “inhibition zone diameter”, `CCOC(=O)C1=C(C)NC2=C(C(=O)CC(C)(C)C2)C1c1ccc(OCC(=O)NN=Cc2cccc([N+](=O)[O-])c2)cc1OCC(=O)NN=Cc1cccc([N+](=O)[O-])c1` (stereo not shown) is recorded as 4.6 ± 0.2 mm (EMCS; concentration not given, 24 h, 37 °C).
